Assay results gathered from unrelated publications.
± marks the error that the study gave.

COc1cc(CCN)ccc1O — z-scored log2 fold change (binding, equilibrium dialysis LC-MS; 5 µM, thermostabilized A2AR-BRIL construct; relative to: no-protein control, direction not given): 0.511
O=C1Nc2ccc(Cl)cc2C(c2ccccc2Cl)=NC1O (stereo not drawn) — minimum effective dose (food self-administration decrease, progressive-ratio schedule; rhesus monkey; intravenous; relative to: vehicle): 3 mg/kg
CN1CC[C@]23c4c5ccc(O)c4O[C@H]2[C@@H](O)C=C[C@H]3[C@H]1C5 — peak increase in tail withdrawal latency (hot water tail withdrawal test; normal Sprague-Dawley rats; ip, 3 mg/kg): 3.6 ± 0.5 s
C[C@]12CC[C@H]3[C@@H](CC=C4CC(O)CC[C@@]43CO)[C@@H]1CCC2O (stereo partly drawn) — crown-like structures (item: F4/80; rat, GAN diet-induced MASH, white adipose tissue; dose not given; relative to: vehicle): decreased
Cc1ncc2n1-c1ccc(Cl)cc1C(c1ccccc1F)=NC2 — response rate (food-maintained responding; rhesus monkey; intramuscular, 1.0 mg/kg, 30 min, acute dependence model; relative to: control): < 25%
COc1ccc2[nH]cc(CCN)c2c1 — z-scored log2 fold change (binding, equilibrium dialysis LC-MS; 5 µM, thermostabilized A2AR-BRIL construct; relative to: no-protein control, direction not given): 2.07
O=C(O)c1cn(Cc2ccc(F)cc2)c2ccccc12 — Vmax (glucuronidation, substrate; human liver microsomes; 60 min, 37 °C, with: UDPGA): 1.11 ± 0.17 nmol/min/mg
CCCC(C(=O)c1ccc2c(c1)OCO2)N1CCCC1.Cl (racemic) — serotonin level (HPLC-ECD; rat, striatum postmortem; dose not given, 40 min): decreased
CC[C@@H]1CN2CCc3c([nH]c4cccc(O)c34)[C@@H]2C[C@@H]1/C(=C\OC)C(=O)OC — Vmax (human liver S9; 10 min, S9 0.2 mg/mL): 0.0931 nmol/min/mg

Repeated from above:
O=C1Nc2ccc(Cl)cc2C(c2ccccc2Cl)=NC1O (stereo not drawn) — minimum effective dose (food self-administration decrease, progressive-ratio schedule; rhesus monkey; intravenous; relative to: vehicle): 3 mg/kg
